Measurements from different studies.
Numbers after ± are the reported error.

CCCCCCCCCCCCCCCC(=O)OC[C@H]1O[C@@H](n2cc(F)c(N)nc2=O)CS1 — solubility decrease (water; 24 h, unit not given; relative to: parent drug): 1200
Cc1ccc2c(N)c(C(=O)Nc3cccc(C(F)(F)F)c3)sc2n1 — solubility limit (anti-HIV assay medium): ≤ 1000 µM
NS(=O)(=O)c1ccc(C(=O)N[C@@H]2O[C@H](CO)[C@@H](O)[C@H](O)[C@@H]2O)cc1 — solubility (water): 2%
CCCCCCCCCCCCCCCC(=O)NC[C@H](NC(=O)CNC(=O)CCNc1ccc([N+](=O)[O-])c2nonc12)C(=O)N[C@H](C(=O)N[C@@H](CCCCN)C(=O)N[C@H](C(=O)N[C@@H](CCCCN)C(=O)N[C@@H](CCCCN)C(=O)O)[C@@H](C)CC)C(C)C — solubility limit (lymphoblast culture medium): 20 µM
Cc1nc2cccc(OCC(C)(C)C(=O)NC(C)C)c2c(N)c1C(=O)[O-].[Na+] — solubility limit (cell culture medium; precipitation onset, lymphocyte): 500 µg/mL
CCCC1OC2CC3C4CCC5=CC(=O)C=CC5(C)C4C(O)CC3(C)C2(C(=O)COC(=O)C(C)N)O1 (stereo not drawn) — solubility fold increase (water; 72 h; relative to: budesonide): 149 fold
CC(C)=CCC[C@](C)(O)[C@H]1CC[C@]2(C)[C@@H]1[C@H](O)C[C@@H]1[C@@]3(C)CC[C@H](O)C(C)(C)[C@@H]3CC[C@]12C — solubility (isopropyl myristate; 72 h, 25 °C): 2530 ± 734 µg/mL
C=C1C[C@@]23CC[C@H]4[C@@](C)(CCC[C@@]4(C)C(=O)O[C@@H]4O[C@H](CO)[C@@H](O)[C@H](O)[C@H]4O)[C@@H]2CC[C@]1(O[C@@H]1O[C@H](CO[C@H]2O[C@H](CO)[C@@H](O)[C@H](O)[C@H]2O)[C@@H](O)[C@H](O)[C@H]1O[C@@H]1O[C@H](CO)[C@@H](O)[C@H](O)[C@H]1O)C3 — solubility ratio (deionised water; 24 h; relative to: cpd over rebaudioside A): 80 fold
NS(=O)(=O)NCC(F)(F)c1ccccc1F — solubility (shake-flask; water; pH 7.4): 11100 µg/mL
COc1cc(C2C(NC(=O)c3ccc(NC(=O)OC(C)(C)C)cc3)(C(=O)O)C(c3ccc(OC(=O)c4cccs4)c(OC)c3)C2(NC(=O)c2ccc(NC(=O)OC(C)(C)C)cc2)C(=O)O)ccc1OC(=O)c1cccs1 (stereo not drawn) — solubility increase (HPLC; poloxamer 188 solution; unit not given; relative to: with over without surfactant): ~1000
CCCC1OC2CC3C4CCC5=CC(=O)C=CC5(C)C4C(O)CC3(C)C2(C(=O)COC(=O)CN)O1 (stereo not drawn) — solubility fold increase (water; 72 h; relative to: budesonide): 180 fold
CC(=Nc1ccccc1)c1c(C)cc(=O)n(O)c1O — solubility (pH 7.4): 133 µM

For quick reference, copied from above:
Cc1ccc2c(N)c(C(=O)Nc3cccc(C(F)(F)F)c3)sc2n1 — solubility limit (anti-HIV assay medium): ≤ 1000 µM
